# Assay results from different studies.
# Compare with care: the assays were run in different laboratories.
SMILES,organism,test,system,setting,MIC
CCON=C1C=CC(=C(C#N)c2ccccc2)C=C1,Kluyveromyces marxianus,broth dilution,ATCC 204093,"48 h, 37 °C",256 µg/mL
COc1cccc(CNc2ccc(C(=O)O)cc2)c1OC,Salmonella enterica,,,,64 µg/mL
CC1(C)SC2C(NC(=O)C(NC(=O)C3=C(O)CNC3=O)c3ccccc3)C(=O)N2C1C(=O)O (stereo not drawn),Escherichia coli,broth microdilution,ATCC 25922 wild type,with: clavulanic acid 6 µg/mL,12.5 µg/mL
N#CC(=C1C=CC(=NOC(=O)OCc2ccccc2)C=C1)c1ccccc1,Kluyveromyces marxianus,broth dilution,ATCC 204093,"48 h, 37 °C",64 µg/mL
CNC(C)C1CCC(N)C(OC2C(N)CC(N)C(OC3OCC(C)(O)C(NC)C3O)C2O)O1 (stereo not drawn),Pseudomonas aeruginosa,,clinical isolate RKI-No_579/15,,1 µg/mL
O=C(O)c1ccc(NCc2ccc(Cl)cc2)cc1,Salmonella enterica,,,,64 µg/mL
O=C(O)c1cn(C2CC2)c2cc(N3CCNCC3)c(F)cc2c1=O,Salmonella enterica,broth microdilution,"Kentucky, susceptible",,0.016 µg/mL
NNC(=O)c1ccncc1,Mycobacterium marinum,,,,40 µM
NOCC(=O)O,Candida tropicalis,,CT2,,1000 µg/mL
N=C(N)c1ccc(OCc2cc(Br)cc(COc3ccc(C(=N)N)cc3)c2)cc1,Escherichia coli,,mcr-2 polymyxin-resistant,"20 h, compound alone",25 µg/mL
O=C(O)c1ccc(NCc2cccc(O)c2)cc1,Salmonella enterica,,,,64 µg/mL
C#CCON=C1C=CC(=C(C#N)c2ccccc2)C=C1,Kluyveromyces marxianus,broth dilution,ATCC 204093,"48 h, 37 °C",16 µg/mL
COc1cccc(CNc2ccc(C(=O)O)cc2)c1,Salmonella enterica,,,,64 µg/mL
OC(Cn1cncn1)(Cn1cncn1)c1ccc(F)cc1F,Candida albicans,broth microdilution,45,"24 h, compound alone",2 µg/mL
N=C(N)c1ccc(OCCCCCOc2ccc(C(=N)N)cc2)cc1,Escherichia coli,,W3110,"in combination, checkerboard, with: rifampicin",50 µg/mL
CC1(C)S[C@@H]2[C@H](NC(=O)[C@H](N)c3ccccc3)C(=O)N2[C@H]1C(=O)O,Salmonella enterica,,,"20 h, pH 5.5",1 µg/mL
N=C(N)c1ccc(OCc2cccc(COc3ccc(C(=N)N)cc3)c2)cc1,Escherichia coli,,mcr-2 polymyxin-resistant,"20 h, compound alone",100 µg/mL
Cc1ccc(CCC(=O)Nc2nnc(S(N)(=O)=O)s2)cc1,Bifidobacterium adolescentis,,HM-633,,> 784 µM

# Some of these lines once more:
SMILES,organism,test,system,setting,MIC
O=C(O)c1ccc(NCc2ccc(Cl)cc2)cc1,Salmonella enterica,,,,64 µg/mL
O=C(O)c1cn(C2CC2)c2cc(N3CCNCC3)c(F)cc2c1=O,Salmonella enterica,broth microdilution,"Kentucky, susceptible",,0.016 µg/mL
